Measured values from different studies.
Each numbered part is a random draw from the data of one study; scales do not carry over between parts.

Series 1
Partner: ARF19 948-1086 (Arabidopsis thaliana, UniProt Q8RYC8)
Technique: two-hybrid
Relative to: out of 4 tests
Reading: higher = firmer interaction
Quantity: positive tests
B1: ARF11 500-622 (Arabidopsis thaliana, UniProt Q9ZPY6); chain SPKEQKQQTSTRSRIKVQMQGTAVGRAVDLTLLRSYDELIKELEKMFEIEGELSPKDKWAIVFTDDEGDRMLVGDDPWNEFCKMAKKLFIYPSDEVKKMRSKSLLGDKGTIVNLESDQRTVHV
B2: IAA27 (Arabidopsis thaliana, UniProt Q9ZSY8); chain MSVSVAAEHDYIGLSEFPTMEATTMSDKTKTRDNNNGLNFKATELRLGLPGSESPERVDSRFLALNKSSCPVSGAKRVFSDAINDSNKWVFSPGSTTATGDVGSGSGPRTSVVKDGKSTTFTKPAVPVKEKKSSATAPASKAQVVGWPPIRSFRKNSMASSQSQKPGNNSETEEAEAKSGPEQPCLYVKVSMEGAPYLRKIDLKTYKSYLELSSALEKMFSCFTIGQFGSHGGCGRDGLNESRLTDLLRGSEYVVTYEDKDSDWMLVGDVPWEMFICSCKKLRIMKSSEAIGLAPRVMEKCRSRN
B3: ARF4 660-788 (Arabidopsis thaliana, UniProt Q9ZTX9); chain QSSSKRICTKVHKQGSQVGRAIDLSRLNGYDDLLMELERLFNMEGLLRDPEKGWRILYTDSENDMMVVGDDPWHDFCNVVWKIHLYTKEEVENANDDNKSCLEQAALMMEASKSSSVSQPDSSPTITRV
B4: IAA19 (Arabidopsis thaliana, UniProt O24409); chain MEKEGLGLEITELRLGLPGRDVAEKMMKKRAFTEMNMTSSGSNSDQCESGVVSSGGDAEKVNDSPAAKSQVVGWPPVCSYRKKNSCKEASTTKVGLGYVKVSMDGVPYLRKMDLGSSQGYDDLAFALDKLFGFRGIGVALKDGDNCEYVTIYEDKDGDWMLAGDVPWGMFLESCKRLRIMKRSDATGFGLQPRGVDE
B5: ARF10 575-693 (Arabidopsis thaliana, UniProt Q9SKN5); chain LQGLETGHCKVFMESEDVGRTLDLSVIGSYQELYRKLAEMFHIEERSDLLTHVVYRDANGVIKRIGDEPFSDFMKATKRLTIKMDIGGDNVRKTWITGIRTGENGIDASTKTGPLSIFA
B6: ARF12 500-593 (Arabidopsis thaliana, UniProt Q9XID4); chain TEIQNKQFSSSRTCTKVQMQGVTIGRAVDLSVLNGYDQLILELEKLFDIKGQLQTRNQWEIAFTDSDEDKMLVGDDPWPEFCNMVKKIFIQKRR
B7: IAA16 (Arabidopsis thaliana, UniProt O24407); chain MINFEATELRLGLPGGNHGGEMAGKNNGKRGFSETVDLKLNLSSTAMDSVSKVDLENMKEKVVKPPAKAQVVGWPPVRSFRKNVMSGQKPTTGDATEGNDKTSGSSGATSSASACATVAYVKVSMDGAPYLRKIDLKLYKTYQDLSNALSKMFSSFTIGNYGPQGMKDFMNESKLIDLLNGSDYVPTYEDKDGDWMLVGDVPWEMFVDSCKRIRIMKGSEAIGLAPRALEKCKNRS
B8: ARF16 570-670 (Arabidopsis thaliana, UniProt Q93YR9); chain SPCSKKVHDASGLETGHCKVFMESDDVGRTLDLSVLGSYEELSRKLSDMFGIKKSEMLSSVLYRDASGAIKYAGNEPFSEFLKTARRLTILTEQGSESVVV
Construct (chain): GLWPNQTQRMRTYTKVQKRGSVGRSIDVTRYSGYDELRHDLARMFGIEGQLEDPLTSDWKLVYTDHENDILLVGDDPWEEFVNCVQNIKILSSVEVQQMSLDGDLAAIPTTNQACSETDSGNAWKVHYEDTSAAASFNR
B1 (ARF11 500-622): 0
B2 (IAA27): 1
B3 (ARF4 660-788): 0
B4 (IAA19): 4
B5 (ARF10 575-693): 0
B6 (ARF12 500-593): 0
B7 (IAA16): 4
B8 (ARF16 570-670): 0

Series 2
Target: RNA binding protein fox-1 homolog 2, RRM domain, GST-SBP tag (RBFOX2, Homo sapiens, UniProt O43251-10, residues 100-194)
Technique: RNA Bind-n-Seq
Form: RNA
Medium: in vitro
Tested at: 365 nM
Setting: natural RNA segment, single round, ends assumed
Relative to: no-protein control
Reading: higher = stronger binding
Quantity: RBNS enrichment (R)
Construct (chain): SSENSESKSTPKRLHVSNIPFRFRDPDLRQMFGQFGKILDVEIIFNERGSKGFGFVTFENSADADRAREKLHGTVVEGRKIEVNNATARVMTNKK
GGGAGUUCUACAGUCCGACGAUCUCUGGAAGGAUGCUCGAGAGAACAAAUGGAGGUGGUGAAAAUCAAGCUUUGGAUUGUGCAUUCCUAGGCACAAAAUUACCUCAUUCUUCCUAACAAGCAAUCUGGGACCUUGGAAUUCUCGGGUGCCAA: 0.279
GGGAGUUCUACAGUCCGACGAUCUUGGGGGUUGCUUGUGAAAUUAGGCUAAGUCAUUUGUAGACUAAUCAGUGAUUGUAAGUUUGCCUGAUACUCAGCACACAUCUAUGUUUUCCUAUGAGCAGUUCAACCUGUGGAAUUCUCGGGUGCCAA: 0.471
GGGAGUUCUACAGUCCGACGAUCAAUACUUGUCGCUCUGGGGUUUUGUCUUGUUGAGGAGAGGACAGCAGUUUCUGGACCAUGUUAUCACCUGUGUGUGUCUCAUAUCUUGGAAAUUGACAGAUUUGGUGAAUUGGAAUUCUCGGGUGCCAA: 1.4
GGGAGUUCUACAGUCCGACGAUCUUGUUGUUGUUUCCUUUUUGUAUUUUACUGAUAUCACCAGGAUAGUUUACUCUCCUUCUAGCUUUCUGCUUACCGCACACUGGAUAACACACACAUACACACCCACAAAAUGGAAUUCUCGGGUGCCAA: 0.399
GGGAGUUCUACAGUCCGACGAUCGUGCUCCCCCAACUAUGUAUCAGAUAAGAUUCUUUGAUCCCGACUCUGUGUGUGCGAGCACGCGUGUCUGUGUUUGUGUGUGCAUAGUUCUGUGGUUUUAGACACGCUUUUGGAAUUCUCGGGUGCCAA: 0.316
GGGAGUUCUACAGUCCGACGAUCACCCCCACACACGUCAUCUGCAUUGUUAUUGGAGCCUGUACUUAGAGGGAUUAAGCCCACACCCUGGCUUCCAUUCCAUAUCAGGUACAGGAUUUGAUGUUAUUAACAUUUGGAAUUCUCGGGUGCCAA: 0.499
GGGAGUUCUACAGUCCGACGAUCCUAGCACUGUCUUCCUUUGUAUUUGUCAGAUUUAUGAUGCAUUGUUUCAGUCUACCCUUAAAGAAGUCAAGCCAAAAAUAGAGGUGAGGGCUACUUUGCUUCUUAAUGUAUGGAAUUCUCGGGUGCCAA: 0.629
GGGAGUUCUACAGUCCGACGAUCGGAGUUUUCACCGUGGUCAUUUCUACCUCCGGAGCAAGGUGCCAGCGCCAGUACUAGAGCCUGCUUAUCCACAUUUGCCCUGGACAGGAGCAGGAGGAAGUCCACUUCUGUGGAAUUCUCGGGUGCCAA: 0.313
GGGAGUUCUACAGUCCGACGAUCCUCUCUGUCUUUUUCCUUCCUGAGAAACGUCCAUCUCUCUCCCUUACUAUUCCCACUUUCAUUCAAUCAACCUGCACUUCAUAUCUAGAUUUCUAGAAAAGCUUCCUAGCUGGAAUUCUCGGGUGCCAA: 2.19
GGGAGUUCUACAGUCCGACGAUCAUUCCUGCCUGAUUCUGGGUCCGUCCUGACCUCCAAAGGUCAGCUUGGUGCUUGAGGUCUCCCUGCUCUUGGUGGCAGUGGUAGCAGCAACAGCAGCAGCAGCAGCAGCAUGGAAUUCUCGGGUGCCAA: 0.413
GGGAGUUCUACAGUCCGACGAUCACUGAGAACGUGAACUCGGUCUUCCUUCCAGCUGUCGUCAGGAUCUUGGAGGUGUACACUUACUUAAAUUCAGUAUUACUUGUGUGUGUUUUCAUUUUUUUGUUGUUGUUUGGAAUUCUCGGGUGCCAA: 0.567
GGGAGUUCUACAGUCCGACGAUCAAUUUAGUUUGGGUGUUCCUCAUCACAUGUAUAUACGGACUAUCCAUUGAACUUAAUCUGUGUGGCUUCCAGCCCUCCCUUUACCAAAAGGGUCAAUGGACCUUUCUUUGUGGAAUUCUCGGGUGCCAA: 0.33

Series 3
Target: PABPC1L2, full length, GST fusion (mouse, UniProt A0ABA7IW68)
Technique: RNAcompete
Form: RNA
Medium: in vitro
Tested at: 20 nM
Setting: 7-mer, probes averaged, single round
Relative to: mean of 7-mers
Reading: higher = stronger binding
Quantity: 7-mer Z-score
Target sequence (chain): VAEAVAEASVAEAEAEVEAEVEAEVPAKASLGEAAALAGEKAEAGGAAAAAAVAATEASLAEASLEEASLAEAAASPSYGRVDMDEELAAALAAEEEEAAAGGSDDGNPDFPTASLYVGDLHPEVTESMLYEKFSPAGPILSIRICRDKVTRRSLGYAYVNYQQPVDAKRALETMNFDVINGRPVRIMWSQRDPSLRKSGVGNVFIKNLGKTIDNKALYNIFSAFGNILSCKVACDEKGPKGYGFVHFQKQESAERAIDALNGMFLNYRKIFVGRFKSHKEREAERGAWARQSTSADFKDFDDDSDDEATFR
GCAUUAG: -0.0844
CGUAUAC: -0.206
CAUGAUU: -0.0881
UGAGGUG: 0.0841
CGCAAAU: -0.0047
UUUAAAA: 1.48
AGACCCA: -0.237
CCAGCGU: -0.275
AGCGGUA: 0.1
ACUACCA: -0.2
GACGACU: -0.0246
GUAGAUG: -0.012
CUGCAUU: -0.309
CAGCUGC: -0.304
CCAAACC: -0.142
UAGAUAG: -0.128
GAGUUUG: -0.371
AUCUUAC: -0.146
GGUUUAU: -0.224
UUGCUAG: -0.213
CCGGAGC: -0.104
UCCAAUU: -0.121
UACAGUA: -0.104
AGGGGUU: 0.213
GCGUAAA: 0.807

Series 4
Target: RING finger protein unkempt homolog, zinc fingers 1-6, GST-SBP tag (UNK, Homo sapiens, UniProt Q9C0B0, residues 30-357)
Sequence of UniProt Q9C0B0 (30-357, looked up): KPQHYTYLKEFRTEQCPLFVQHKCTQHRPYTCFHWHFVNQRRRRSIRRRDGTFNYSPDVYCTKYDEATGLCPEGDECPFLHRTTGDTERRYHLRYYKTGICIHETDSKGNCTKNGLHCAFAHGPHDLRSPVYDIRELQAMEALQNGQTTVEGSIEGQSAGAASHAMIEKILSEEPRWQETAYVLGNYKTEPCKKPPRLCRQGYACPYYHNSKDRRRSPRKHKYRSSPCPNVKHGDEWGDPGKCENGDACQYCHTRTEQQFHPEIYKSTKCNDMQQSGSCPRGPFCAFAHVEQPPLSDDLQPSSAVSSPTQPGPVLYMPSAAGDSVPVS
Technique: RNA Bind-n-Seq
Form: RNA
Medium: in vitro
Tested at: not given
Setting: RNA with constant flanks, human-mouse chimeric sites, ends assumed
Relative to: input RNA pool
Reading: higher = stronger binding
Quantity: bound/input enrichment
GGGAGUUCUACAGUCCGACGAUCGGAAUUGCUGAUUCAAGUAAGUUUGAGUAUCACAAUGUUAGCUUUCUAAUUCCAUAAAAGUACUUGGUUUUUACAGUUUAUAAUCUGACAUCACCCCAGCGCCAUUUAGAUCAGCUUACUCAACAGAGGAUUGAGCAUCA: 0.786 ratio
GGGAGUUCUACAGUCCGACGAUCUGGCGCCUGCGCUCCCCACUCGUGUUUUUAAGUGUAUAAGAUGUAUAUACAUGUAUUUACAAUUGAGCUUUUGUUACAUAAUGCUGAAAUGCUACUGGAGAUUAUGAAAAAUGUUUCAAUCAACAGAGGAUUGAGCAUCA: 0.109 ratio
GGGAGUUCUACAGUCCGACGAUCUGUGCAUAUGAUGCUUGGAGAUGGUUUUGCAGAUGCAGAAAUCGCUGCAAGGUAAUCACAAUAGAUAAAAGUGGUAUUUUAAACCUUUGAAAUAAAUGGAUGUAACUGUACCUUGGUACACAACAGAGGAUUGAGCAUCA: 0.714 ratio
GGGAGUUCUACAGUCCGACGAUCCAGCUGCGAGGCCGCGGUUUCCCCCUGGGCCUCCCCAGCAGCAGCCAUGGGCAUCAAAUUUUUAGAAGUUAUUAAACCAUUCUGUGCAGUUCUACCAGAAAUUCAGAAACCGGAAAGGAACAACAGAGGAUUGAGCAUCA: 3.14 ratio
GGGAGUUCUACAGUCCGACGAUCUCAUUUUUCUCUUUUCUUUCUUUCCUUUAGGAAAAGCCUAAAGAUUAGUAAGAAAAGAAAACAGAAGCCAUGUUUCGAAGACCUGUGUUACAGGUAUUUCGUCAGUUUGUAAGACAUGAGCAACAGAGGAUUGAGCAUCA: 0.177 ratio
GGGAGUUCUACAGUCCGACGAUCCUCUUUGAAUCUUUCAAGAGUUUUGAAGGUCUCUUUUAUUUUCUGGGGUCCAUUGUUAACUUUAGUCAGGACCCAGAUGUGCACUUUAAAUAUAUUCAGGCAGCUUGCAAGACUGGGCAACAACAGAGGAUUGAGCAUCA: 0.696 ratio
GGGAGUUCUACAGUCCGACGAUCGAGCCCAGCCGGCAGUUUGUAAAGGACUCAAUUCGGCUGGUUAAAAGAUGCACCAAACCUGAUAGAAAAGAAUUCCAGAAGAUUGCCAUGGCUACAGCAAUAGGAUUUGCUAUCAUGGGACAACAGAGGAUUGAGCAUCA: 0.172 ratio
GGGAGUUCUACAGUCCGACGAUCGUCAACAGUUGUCUCAACCCCAUCCUCUACGCCUUCCUGGAUGAGAACUUCAAGGCCUGCUUCCGCAAGUUCUGCUGUGCUUCUGCCCUGCGCCGGGACGUGCAGGUGUCUGACCGCGUGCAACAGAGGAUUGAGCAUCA: 0.368 ratio
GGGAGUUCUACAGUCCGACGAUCCGCUGGCCCAAGCUGAUGGACUCUGAUGGCCUCCAUCUCUCAGGCACGUGUGCCUUCUCUUAGUCCCUUCUGGGUUGAUGUUAUGAAUCUCAGUACUGUGGUUUGAAAGCACCAGCUUUGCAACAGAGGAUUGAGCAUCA: 0.296 ratio
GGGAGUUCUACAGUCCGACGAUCGUGACUGGUGUUAAGAUUUCCCCUCAGCAAAGAAGUGUAGCAGUGACCAUAAUUCCAUCUGUGGUGAGUGCCAGUCAGAUAAAAGAGCUGGUCCCAGACCUCAGUUUAGACAUGGGAACUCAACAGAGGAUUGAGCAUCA: 0.312 ratio
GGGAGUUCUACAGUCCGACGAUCUACUCAACUUUCUUGCCACGUUUUGAAUUCCAAGAUGUUAUUCCUCCAGAUGACUUCCUAACGAGUGAUGAAGAGCAAGAUUUGGUUUUAUUUGGAACUAUGAGAGGACAAGUUGUUGGACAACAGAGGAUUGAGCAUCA: 0.125 ratio
